Assay results gathered from unrelated publications.
Numbered parts are unrelated; each lists some results of a single study.
Sequence of UniProt Q96J92 (whole entry, looked up): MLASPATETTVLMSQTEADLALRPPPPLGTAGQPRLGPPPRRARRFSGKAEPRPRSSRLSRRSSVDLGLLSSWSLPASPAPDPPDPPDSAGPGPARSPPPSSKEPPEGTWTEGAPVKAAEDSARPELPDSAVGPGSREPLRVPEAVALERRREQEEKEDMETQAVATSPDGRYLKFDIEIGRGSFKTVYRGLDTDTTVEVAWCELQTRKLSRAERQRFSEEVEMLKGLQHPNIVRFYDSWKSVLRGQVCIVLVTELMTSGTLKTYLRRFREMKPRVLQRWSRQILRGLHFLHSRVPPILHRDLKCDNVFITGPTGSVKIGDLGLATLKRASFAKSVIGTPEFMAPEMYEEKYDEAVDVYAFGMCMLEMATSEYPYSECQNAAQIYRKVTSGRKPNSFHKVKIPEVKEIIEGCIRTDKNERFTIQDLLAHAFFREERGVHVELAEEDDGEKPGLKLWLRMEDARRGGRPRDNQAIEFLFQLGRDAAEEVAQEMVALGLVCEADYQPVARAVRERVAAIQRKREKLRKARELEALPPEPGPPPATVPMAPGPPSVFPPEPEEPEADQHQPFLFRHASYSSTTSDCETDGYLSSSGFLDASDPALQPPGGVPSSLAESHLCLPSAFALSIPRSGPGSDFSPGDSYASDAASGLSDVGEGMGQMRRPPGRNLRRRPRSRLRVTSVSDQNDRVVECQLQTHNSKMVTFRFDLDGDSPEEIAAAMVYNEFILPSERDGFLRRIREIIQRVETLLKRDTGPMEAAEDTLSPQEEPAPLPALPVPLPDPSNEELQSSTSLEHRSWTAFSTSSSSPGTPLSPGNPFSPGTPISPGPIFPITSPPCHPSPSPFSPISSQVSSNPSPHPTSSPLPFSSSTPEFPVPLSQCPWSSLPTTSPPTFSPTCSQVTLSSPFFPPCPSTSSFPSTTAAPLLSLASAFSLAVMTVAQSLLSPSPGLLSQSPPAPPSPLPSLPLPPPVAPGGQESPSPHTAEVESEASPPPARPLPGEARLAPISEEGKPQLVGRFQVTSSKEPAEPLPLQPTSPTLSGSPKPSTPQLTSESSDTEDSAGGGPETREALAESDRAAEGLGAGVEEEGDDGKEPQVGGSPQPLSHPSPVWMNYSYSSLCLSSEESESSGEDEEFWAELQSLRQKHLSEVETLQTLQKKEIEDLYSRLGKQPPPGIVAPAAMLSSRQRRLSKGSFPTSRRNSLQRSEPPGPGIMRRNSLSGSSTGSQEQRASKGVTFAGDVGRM
Sequence of UniProt Q15303 (whole entry, looked up): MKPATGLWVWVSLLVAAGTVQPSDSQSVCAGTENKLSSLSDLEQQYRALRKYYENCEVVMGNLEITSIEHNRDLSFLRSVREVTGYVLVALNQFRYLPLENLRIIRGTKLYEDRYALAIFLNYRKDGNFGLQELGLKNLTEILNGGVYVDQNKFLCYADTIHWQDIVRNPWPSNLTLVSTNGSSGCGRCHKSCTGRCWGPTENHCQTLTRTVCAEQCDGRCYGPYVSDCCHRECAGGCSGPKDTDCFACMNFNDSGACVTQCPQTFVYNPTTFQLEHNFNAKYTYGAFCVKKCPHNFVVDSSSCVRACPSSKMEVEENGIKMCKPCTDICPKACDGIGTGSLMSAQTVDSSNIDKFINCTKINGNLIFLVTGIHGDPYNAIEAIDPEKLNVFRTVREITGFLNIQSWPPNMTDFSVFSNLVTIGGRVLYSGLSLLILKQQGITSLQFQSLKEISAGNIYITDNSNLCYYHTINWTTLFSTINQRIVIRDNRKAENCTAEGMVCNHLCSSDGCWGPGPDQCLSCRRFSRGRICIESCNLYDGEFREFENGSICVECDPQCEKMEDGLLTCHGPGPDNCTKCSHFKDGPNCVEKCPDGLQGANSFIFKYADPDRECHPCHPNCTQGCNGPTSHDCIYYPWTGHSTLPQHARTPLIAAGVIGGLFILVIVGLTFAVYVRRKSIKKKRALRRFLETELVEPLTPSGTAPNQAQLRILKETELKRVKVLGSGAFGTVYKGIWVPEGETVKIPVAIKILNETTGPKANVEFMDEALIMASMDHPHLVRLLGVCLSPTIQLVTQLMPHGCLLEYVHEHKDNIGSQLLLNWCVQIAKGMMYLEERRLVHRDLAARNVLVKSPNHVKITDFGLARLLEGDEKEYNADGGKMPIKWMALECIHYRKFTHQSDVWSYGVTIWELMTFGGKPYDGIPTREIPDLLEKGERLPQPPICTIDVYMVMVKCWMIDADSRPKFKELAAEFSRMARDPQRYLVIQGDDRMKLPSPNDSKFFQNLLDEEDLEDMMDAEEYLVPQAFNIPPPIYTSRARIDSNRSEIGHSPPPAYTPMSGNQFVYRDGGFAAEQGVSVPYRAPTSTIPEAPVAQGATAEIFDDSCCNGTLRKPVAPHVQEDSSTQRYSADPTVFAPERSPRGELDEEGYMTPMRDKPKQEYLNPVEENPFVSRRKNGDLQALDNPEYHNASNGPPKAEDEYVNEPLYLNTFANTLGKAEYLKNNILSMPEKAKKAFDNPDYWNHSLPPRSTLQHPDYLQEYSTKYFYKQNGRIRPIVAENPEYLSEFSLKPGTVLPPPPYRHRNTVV
Sequence of UniProt Q9BUB5 (whole entry, looked up): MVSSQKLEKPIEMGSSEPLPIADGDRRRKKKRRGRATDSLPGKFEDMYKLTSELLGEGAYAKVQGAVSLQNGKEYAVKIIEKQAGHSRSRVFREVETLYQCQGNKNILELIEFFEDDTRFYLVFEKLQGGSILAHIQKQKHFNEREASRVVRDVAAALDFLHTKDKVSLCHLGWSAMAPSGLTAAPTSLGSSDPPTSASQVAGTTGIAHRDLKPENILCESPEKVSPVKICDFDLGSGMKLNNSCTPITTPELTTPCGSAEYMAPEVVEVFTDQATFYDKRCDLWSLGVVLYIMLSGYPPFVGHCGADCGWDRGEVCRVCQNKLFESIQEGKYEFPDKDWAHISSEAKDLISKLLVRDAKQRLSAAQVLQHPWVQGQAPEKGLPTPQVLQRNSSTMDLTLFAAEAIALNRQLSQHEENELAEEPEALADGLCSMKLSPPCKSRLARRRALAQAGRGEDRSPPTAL
Sequence of UniProt P08631 (whole entry, looked up): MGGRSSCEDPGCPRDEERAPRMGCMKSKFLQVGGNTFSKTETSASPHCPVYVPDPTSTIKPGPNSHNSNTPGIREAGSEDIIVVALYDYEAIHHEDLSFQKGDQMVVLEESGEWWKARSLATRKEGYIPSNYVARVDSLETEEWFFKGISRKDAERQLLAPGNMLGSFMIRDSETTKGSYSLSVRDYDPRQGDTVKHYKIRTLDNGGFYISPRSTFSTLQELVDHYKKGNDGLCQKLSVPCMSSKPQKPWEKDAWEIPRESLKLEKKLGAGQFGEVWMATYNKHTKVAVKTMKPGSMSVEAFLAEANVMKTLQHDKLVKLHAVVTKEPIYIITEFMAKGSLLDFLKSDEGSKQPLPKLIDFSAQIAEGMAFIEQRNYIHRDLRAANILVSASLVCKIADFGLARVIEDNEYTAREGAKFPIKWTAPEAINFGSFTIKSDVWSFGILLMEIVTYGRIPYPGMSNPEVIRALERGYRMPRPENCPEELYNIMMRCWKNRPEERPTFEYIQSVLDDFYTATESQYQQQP

Study 1
Target: Insulin receptor (INSR, Homo sapiens, UniProt P06213)
Sequence of UniProt P06213 (whole entry, looked up): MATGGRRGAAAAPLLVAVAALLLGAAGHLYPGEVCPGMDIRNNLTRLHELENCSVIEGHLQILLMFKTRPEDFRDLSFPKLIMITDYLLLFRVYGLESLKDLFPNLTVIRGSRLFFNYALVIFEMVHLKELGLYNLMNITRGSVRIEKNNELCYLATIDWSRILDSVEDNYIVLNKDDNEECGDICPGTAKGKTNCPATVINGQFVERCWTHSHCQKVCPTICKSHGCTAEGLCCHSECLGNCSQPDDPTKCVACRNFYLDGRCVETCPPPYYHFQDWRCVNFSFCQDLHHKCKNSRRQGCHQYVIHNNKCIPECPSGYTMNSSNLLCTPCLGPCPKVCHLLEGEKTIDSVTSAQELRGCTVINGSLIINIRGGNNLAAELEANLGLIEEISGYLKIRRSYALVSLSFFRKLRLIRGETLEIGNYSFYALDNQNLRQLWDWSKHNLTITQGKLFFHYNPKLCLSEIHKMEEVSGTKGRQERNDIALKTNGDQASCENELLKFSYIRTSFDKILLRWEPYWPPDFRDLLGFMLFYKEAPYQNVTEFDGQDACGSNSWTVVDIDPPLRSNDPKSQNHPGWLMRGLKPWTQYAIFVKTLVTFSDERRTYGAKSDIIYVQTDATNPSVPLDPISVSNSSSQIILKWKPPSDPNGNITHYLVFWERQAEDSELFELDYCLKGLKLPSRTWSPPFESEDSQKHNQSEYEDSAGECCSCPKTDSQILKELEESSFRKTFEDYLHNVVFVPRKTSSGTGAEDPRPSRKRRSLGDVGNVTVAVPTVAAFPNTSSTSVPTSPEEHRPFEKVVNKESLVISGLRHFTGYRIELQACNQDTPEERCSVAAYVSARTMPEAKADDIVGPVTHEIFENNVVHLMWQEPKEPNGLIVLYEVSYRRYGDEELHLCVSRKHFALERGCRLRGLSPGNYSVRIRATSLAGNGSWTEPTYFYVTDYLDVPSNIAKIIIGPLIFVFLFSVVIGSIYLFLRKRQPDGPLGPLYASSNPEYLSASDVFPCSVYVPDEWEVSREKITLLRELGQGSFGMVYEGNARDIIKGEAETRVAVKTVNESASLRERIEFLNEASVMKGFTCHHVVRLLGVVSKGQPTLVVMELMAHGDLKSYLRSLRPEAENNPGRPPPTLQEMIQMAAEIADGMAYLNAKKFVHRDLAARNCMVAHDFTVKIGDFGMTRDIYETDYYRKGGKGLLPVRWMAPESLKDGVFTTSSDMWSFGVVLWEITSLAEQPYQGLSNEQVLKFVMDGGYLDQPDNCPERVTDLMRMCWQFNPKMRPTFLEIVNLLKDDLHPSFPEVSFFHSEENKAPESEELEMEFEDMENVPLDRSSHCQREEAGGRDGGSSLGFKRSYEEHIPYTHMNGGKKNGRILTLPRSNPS
Observed: enzyme activity
Action: inhibitor
Concentration: 0.5 µM
Relative to: control
Structure (SMILES) | remaining activity [%]
Nc1ncnc2c1cnn2-c1ccccc1 | 103
CC(=O)c1ccc(N2CCOCC2)cc1O | 94
COc1cc(Nc2c(C#N)cnc3cc(OCCCN4CCN(C)CC4)c(OC)cc23)c(Cl)cc1Cl | 69.8
Cc1cc(Nc2nc(-c3ccccc3)nc3ccccc23)n[nH]1 | 31.6
CC(C)(C)n1nc(Cc2cccc3ccccc23)c2c(N)ncnc21 | 102
Nc1nc(Nc2ccc(S(N)(=O)=O)cc2)nn1C(=O)c1c(F)cccc1F | 94.9
CC#CC(=O)Nc1cc2c(Nc3ccc(F)c(Cl)c3)ncnc2cn1 | 99.6
Cc1ccc(NC2=CC(=O)c3sc(C)nc3C2=O)cc1 | 92.6
CCCC(=O)Oc1ccc2[nH]c(C(=O)c3cc4ccccc4[nH]3)cc2c1 | 101
Cc1cncc2cccc(S(=O)(=O)N3CCCN(C(=O)CN)C[C@@H]3C)c12 | 88.9
O=C1NC(=O)C(c2c[nH]c3ccccc23)=C1c1c[nH]c2ccccc12 | 99.6
N#CC(=C(N)Sc1ccc(N)cc1)c1ccccc1C(F)(F)F | 101
CSc1nc(-c2ccnc(N[C@@H](C)c3ccccc3)c2)c(-c2ccc(F)cc2)[nH]1 (racemic) | 100
O=S(=O)(NCCNC/C=C/c1ccc(Br)cc1)c1cccc2cnccc12 | 94.3
NC(=O)c1ccc(N(C(N)=O)c2c(F)cccc2F)nc1-c1ccc(F)cc1F | 104
Fc1ccc(-c2nc3n(c2-c2ccncc2)CCS3)cc1 | 91.2
CC[n+]1c(/C=C/N(C)c2ccccc2)n(-c2ccccc2)c2ccc(-c3nc4ccccc4s3)cc21 | 94
Oc1ccc(Nc2nc(-c3ccc(Cl)cc3)cs2)cc1 | 88.9
CCc1[nH]c(-c2ccc(OC)cc2)nc1-c1ccncc1 | 85
COc1ccc(S(=O)(=O)N(CCO)c2ccccc2CN(C)CC=Cc2ccc(Cl)cc2)cc1 | 103

Study 2
Organism: Plasmodium berghei
Action: inhibitor
Cells: Huh-7
Strain: GFP-expressing sporozoites, liver stage
Concentration: 10 µM
Time: 24 h
Relative to: untreated control
SMILES | infection rate [%]
C#C[C@]1(O)CC[C@H]2[C@@H]3CCC4=Cc5oncc5C[C@]4(C)[C@H]3CC[C@@]21C | 102
COc1ccc(C2C(=O)c3ccccc3C2=O)cc1 | 84.5
CCC(=O)O[C@]1(C(=O)CCl)[C@@H](C)C[C@H]2[C@@H]3CCC4=CC(=O)C=C[C@]4(C)[C@@]3(F)[C@@H](O)C[C@@]21C | 75.2
CCc1cn([C@H]2C[C@H](O)[C@@H](CO)O2)c(=O)[nH]c1=O | 115
CCN(CCCc1ccccc1)CCCc1ccccc1 | 94.3
CN1CCCC(n2nc(Cc3ccc(Cl)cc3)c3ccccc3c2=O)CC1 (stereo not drawn) | 105
O=C1c2ccccc2C(=O)C1c1ccc(Br)cc1 | 87.8
C[C@@H]1[C@H](O)[C@@H](C)/C=C/C=C/C=C/C=C/C=C/C=C/C=C/[C@H](O[C@@H]2O[C@H](C)[C@@H](O)[C@H](N)[C@@H]2O)C[C@@H]2O[C@](O)(C[C@@H](O)C[C@@H](O)[C@H](O)CC[C@@H](O)C[C@@H](O)CC(=O)O[C@H]1C)C[C@H](O)[C@H]2C(=O)O | 95.2
C[C@]12CC[C@@H]3c4ccc(O)cc4CC[C@H]3[C@@H]1CC[C@@H]2OC(=O)CCC1CCCC1 | 105
O=C1C(O)=C([C@H]2CC[C@H](c3ccc(Cl)cc3)CC2)C(=O)c2ccccc21 | 9.06
CCCCOC(=O)c1ccc(N)cc1 | 90.1
CC[C@H]1OC(=O)[C@H](C)[C@@H](O[C@H]2C[C@@](C)(OC)[C@@H](O)[C@H](C)O2)[C@H](C)[C@@H](O[C@@H]2O[C@H](C)C[C@H](N(C)C)[C@H]2O)[C@](C)(O)C[C@@H](C)C(=O)[C@H](C)[C@@H](O)[C@]1(C)O | 94.2
COc1ccccc1OCCNCC(O)COc1cccc2[nH]c3ccccc3c12 (stereo not drawn) | 101
Nc1[nH]cnc2ncnc1-2 | 107
C/C=C(/C(=C/C)c1ccc(O)cc1)c1ccc(O)cc1 | 80.4
C[N+](C)(C)CCOC(N)=O | 104
CCCCN1CCCCC1C(=O)Nc1c(C)cccc1C (stereo not drawn) | 107

Study 3
SMILES: CO[C@@H](C)c1c(Nc2ccc([C@@H](N(C)C(=O)C3CCS(=O)(=O)CC3)C(F)(F)F)cc2)cnc2cc(Cl)nn12
Observed: cell-free assay
Method: competition with immobilised ligand
Concentration: 1 µM
target | remaining binding
CDC42BPA (Homo sapiens, UniProt Q5VT25) | 94%
CDKL5 (Homo sapiens, UniProt O76039) | 89%
MKNK1 (Homo sapiens, UniProt Q9BUB5) | 100%
FLT3 (Homo sapiens, UniProt P36888, ITD) | 66%
HCK (Homo sapiens, UniProt P08631) | 100%
NEK5 (Homo sapiens, UniProt Q6P3R8) | 88%
MET (Homo sapiens, UniProt P08581, Y1235D) | 85%
EGFR (Homo sapiens, UniProt P00533, L858R/T790M) | 72%
CLK4 (Homo sapiens, UniProt Q9HAZ1) | 92%
MAPK14 (Homo sapiens, UniProt Q16539) | 83%
STK36 (Homo sapiens, UniProt Q9NRP7) | 94%
NEK9 (Homo sapiens, UniProt Q8TD19) | 90%
ERBB4 (Homo sapiens, UniProt Q15303) | 77%
WNK4 (Homo sapiens, UniProt Q96J92) | 99%
COQ8B (Homo sapiens, UniProt Q96D53) | 96%

Study 4
Organism: Sarcocystis neurona
Observed: parasite growth
Concentration: 10 µM
Time: 96 h
Notes: first screen
Relative to: untreated
Compound | log2 fold change
Cc1ccc(N(CC2=NCCN2)c2cccc(O)c2)cc1 | 0.23
NC1CCN(c2nc3c(cc2F)c(=O)c(C(=O)O)cn3-c2ccc(F)cc2F)C1 (stereo not drawn) | -0.34
CC(Oc1c(Cl)cccc1Cl)C1=NCCN1 (stereo not drawn) | -0.12
OCCN1CCN(CCCN2c3ccccc3Sc3ccc(C(F)(F)F)cc32)CC1 | -3.54
CC(=O)CC(c1ccccc1)c1c(O)c2ccccc2oc1=O (stereo not drawn) | 0.06
COCc1c(C(C)C)nc(C(C)C)c(/C=C/[C@@H](O)C[C@@H](O)CC(=O)O)c1-c1ccc(F)cc1 | -0.5
CC(C)n1c(/C=C/C(O)CC(O)CC(=O)O)c(-c2ccc(F)cc2)c2ccccc21 (stereo not drawn) | 0.04
O=c1c(O[C@@H]2O[C@H](CO)[C@@H](O)[C@H](O)[C@H]2O)c(-c2ccc(O)c(O)c2)oc2cc(O)cc(O)c12 | 0.16
CC(C)NCC(O)c1ccc(NS(C)(=O)=O)cc1 (stereo not drawn) | 0.0568
CC(C)(O)c1ccccc1CC[C@@H](SCC1(CC(=O)O)CC1)c1cccc(/C=C/c2ccc3ccc(Cl)cc3n2)c1 | 0.36
CC(c1cc2ccccc2s1)N(O)C(N)=O (stereo not drawn) | 0.46
O=C(O)CCc1nc(-c2ccccc2)c(-c2ccccc2)o1 | 0.15
Cc1ccnc2c1NC(=O)c1cccnc1N2C1CC1 | 0.13
COc1c(N2CCNC(C)C2)c(F)cc2c(=O)c(C(=O)O)cn(C3CC3)c12 (stereo not drawn) | 0.3

A few entries again (study 1):
Structure (SMILES) | remaining activity [%]
Cc1ccc(NC2=CC(=O)c3sc(C)nc3C2=O)cc1 | 92.6
CCCC(=O)Oc1ccc2[nH]c(C(=O)c3cc4ccccc4[nH]3)cc2c1 | 101
Cc1cncc2cccc(S(=O)(=O)N3CCCN(C(=O)CN)C[C@@H]3C)c12 | 88.9
O=C1NC(=O)C(c2c[nH]c3ccccc23)=C1c1c[nH]c2ccccc12 | 99.6
N#CC(=C(N)Sc1ccc(N)cc1)c1ccccc1C(F)(F)F | 101
CSc1nc(-c2ccnc(N[C@@H](C)c3ccccc3)c2)c(-c2ccc(F)cc2)[nH]1 (racemic) | 100
O=S(=O)(NCCNC/C=C/c1ccc(Br)cc1)c1cccc2cnccc12 | 94.3
NC(=O)c1ccc(N(C(N)=O)c2c(F)cccc2F)nc1-c1ccc(F)cc1F | 104
Fc1ccc(-c2nc3n(c2-c2ccncc2)CCS3)cc1 | 91.2
CC[n+]1c(/C=C/N(C)c2ccccc2)n(-c2ccccc2)c2ccc(-c3nc4ccccc4s3)cc21 | 94
